Published values gathered from unrelated publications.
Each numbered part is a random draw from the data of one study; scales do not carry over between parts. Positions count from the first letter of the parent shown.

Sample 1
Target: RNA binding protein fox-1 homolog 2, RRM domain, GST-SBP tag (RBFOX2, Homo sapiens, UniProt O43251-10, residues 100-194)
Technique: RNA Bind-n-Seq
Molecule type: RNA
Sample: in vitro
Tested at: 365 nM
Notes: natural RNA segment, single round, ends assumed
Reference: no-protein control
Reading: higher = stronger binding
Constant ends, left off below: GGGAGUUCUACAGUCCGACGAUC … UGGAAUUCUCGGGUGCCAA
Construct (chain): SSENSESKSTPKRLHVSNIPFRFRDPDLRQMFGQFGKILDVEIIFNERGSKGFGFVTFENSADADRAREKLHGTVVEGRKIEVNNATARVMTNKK
Sequence	RBNS enrichment (R)
GUUUCUUUUGGAGUACAACAUGUAUGCCGUUUACAACACACACAUGGUAACGGGGAUCACAUGCUCCAUGGUGCGCACGAUCCUGUGGUGUGAAGAGCAGGUCUGCUUUA	1.04
ACCUGGGGGGUAUUUUUUGCCCUCCGUUGGGACACCAGUCUUCGGUGUGUGGAAAUGUGGAAGUCCUUUUGCCCAUGUGAAGACAUGCUUUCCUCAGGGGGGGGGGGUGU	0.329
GGUGGGUAGCCUCUACCAGCCAGGGCAGUCCCUGAGGGGCCAGCAGGGGGGCUGACUGCCUAGUGGCUCAACCUCCUGAACCCACCCACUCCCAGCGAUGCUACCCAGAA	0.312
AAUAAUUUUUCCCUAAUGAUACCACUUUUCUUUUCCCCCUGUACCUAUGGGACUUCCAGAAAGAAGUUAAAUUGAGUAAAAUCAUCAGAAACUGAAUCCAUGUAAGAAAA	0.569
GAGAGUGAGUGAUGGUCUUGGAAAGGAGCUGGGGUGUGGAUGCUAAAGCCCCCAUUCAUACAAACAAGCAGUAAACAGCCUACCCUGGAAAUACCCCUAGUCCCCAAAGU	0.477
CGCUCUUGUGUCACUGCUGUCCUGAGGAAUUCAACUUCUCCAGAAGUGACCUCCUUUUCCUUAUUUAUAUUUCCUGGCCACUAUUCAGUUGUAAGAUAACAUUUGAAAUG	0.461
UGCAGGGAGGCCAUGCCCGCCACCCCUCUUGUUCUGGAUCCCUGCUCCCCUCUGGGUGUGUGGGUGUGUGUGUACGUUUGGGUGUGUGUGUAUGCGCGUGUGUGCGUGUG	0.874
CAGUUAAUGGCACUGCUCACUUCCUGCCUCUGCUGCCACCAUCACUGUGUGAAGCUUUCAAGAGCUUGGUACUUCCCAGGGCUACCGGCAGUCCUCUGUAGUCCAGAGAG	0.23
GGUCAUGGUGAGCAGCAGGCGCAAGCCAUGCAGCCUGUGGACUGUGCGCAUUGAUAUGUGGAGGCUGUUGAUUUCAACCUUUUUUAAACUUGUGUUUUUUAGUAAAAUUG	1.99
AAGAAUGGACUUAAGAAGUACUGCUGGGCAAGUGUGCUGAAAGUACAUUAACUGCUCAAAUACAAGGAAGUGGCCCAAUGAACAUGGUUGUGGGAGGGGAAAGGAGAAAC	0.793
UGGGAGUAUACGGAAACAAAAAUGAUCCUCAGUGCAAAAUGUCUUGUGUAUUUCUCUGUGAAUCCAUGGGUCUGGCUAGAGGGCCCAAAGCUUGUAAAUAUGGGGAUAGU	2.05
AUCUGCAGCCUUCAGAAUGUCCUGUAGGAGUGUCACCAACCCAGGUCCAAGUGUUCAUGCCUGUCCUUCACCAGGGACUGUAGGACCCUUACUUGUUUUGUUUGGUUGGG	2.03

Sample 2
Target: Histone acetyltransferase KAT6A, both winged helices, GST fusion (KAT6A, Homo sapiens, UniProt Q92794, residues 1-181)
Technique: protein binding microarray
Molecule type: double-stranded DNA, one strand shown
Sample: in vitro
Tested at: not given
Notes: 8-mer, flanks averaged, mean of 2 arrays, mostly near background
Reference: not given
Reading: higher = stronger binding
Target sequence (chain): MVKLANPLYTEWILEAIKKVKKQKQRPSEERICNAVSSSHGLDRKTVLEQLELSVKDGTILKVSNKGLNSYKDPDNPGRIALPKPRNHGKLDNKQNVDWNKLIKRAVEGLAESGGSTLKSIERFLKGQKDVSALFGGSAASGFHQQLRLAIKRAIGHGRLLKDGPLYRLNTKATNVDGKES
Sequence	E-score
AGAATCGG	0.156
GACGCCGA	0.176
CAATGTTA	0.0204
TCTATAGA	0.0278
GAGCGCTA	0.251
ACATCCGC	0.297
CACAATCG	0.0656
GGACCTAA	-0.0312
ATTAAAGA	-0.0672
AATTCGAC	-0.099
ACACGCGA	0.207
GGGAAATA	-0.157
TGACGTCA	0.175
ACCATACT	-0.216
GATTGAAC	0.00432
TCTATACA	-0.0728
AGAATACT	-0.196
CCCAATTA	-0.113
CTTTCCGC	0.234

Sample 3
Target: RING finger protein unkempt homolog, zinc fingers 1-6, GST-SBP tag (UNK, Homo sapiens, UniProt Q9C0B0, residues 30-357)
Technique: RNA Bind-n-Seq
Molecule type: RNA
Sample: in vitro
Tested at: not given
Notes: RNA with constant flanks, ends assumed
Reference: input RNA pool
Reading: higher = stronger binding
Constant ends, left off below: GGGAGUUCUACAGUCCGACGAUC … CAACAGAGGAUUGAGCAUCA
Construct (chain): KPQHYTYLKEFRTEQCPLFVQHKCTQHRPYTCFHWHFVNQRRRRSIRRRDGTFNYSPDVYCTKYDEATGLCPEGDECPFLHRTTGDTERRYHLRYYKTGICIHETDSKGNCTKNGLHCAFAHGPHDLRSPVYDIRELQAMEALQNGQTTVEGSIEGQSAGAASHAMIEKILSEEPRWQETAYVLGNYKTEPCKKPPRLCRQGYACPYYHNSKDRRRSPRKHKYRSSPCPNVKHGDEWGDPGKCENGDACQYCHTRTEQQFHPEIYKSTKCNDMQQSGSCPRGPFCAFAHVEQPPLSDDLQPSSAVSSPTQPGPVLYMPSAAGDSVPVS
Sequence	bound/input enrichment [ratio]
UGAGUGCACACCCCCCUCUGUGUGUGUGUGUGUGUGUGUGUGUGUAUGUGUGUGUAUGUGCCGGUCUGUAGAUCUCUUAUCCCUUAGUGAAGGUGAAUACCAGAAGUAAACACAGCCUCU	0.443
UGCCGUUUGAUUUUACACAUAAAAAGCAGUCGGGUGGUGCCGGCCAGUUUGGAAAAGUAACCGGAGUGCUGGAGCCCUUGCCCCCAGAGGACUACACGAAGUUGGAGUUUUCUGAUGAGA	0.153
UUCAAUCCAUUGAAAGCAUCCGGGGAUGGAGAAUCACUGGAUGAAGAUUCUGAAUUCACAUCCGCCUCUGAUUUUGAAAUUGGACACUUUUUCCGUGAGCGGAUAGUCCCGCGGGCUGUG	0.29
UUUGAGUCACAUAAGGAUGAAAUAUUCCAGGUUCAGUGGUCACCUCACAAUGAGACUAUUUCCGCUUCCAGUGGUACUGAUCGCAGACUGAAUGUCUGGGAUUUAAGUAAAAUUGGAGAG	0.0924
UACUGCUUUCAACUUAAAUCACUGAGGCAUUUUUACUACUAUUCUGUUAAAAUCAGGAUUUCCGUGCUUGCCACCACCAGAUGAGAAGUUAAGCAGCCUUUCUGUGGAGAGUGAGAAUAA	0.127
CCAAAUGUUCAGAAGUUGAAAUGGAUUGUUUCUGGGCGUACUGCACGGCAAUUGAAGCACCGCUACUACAGAAUAACUCACCUUCCAACAAUUCCUGAAAUGGUCCCUUAACUGGAUUAU	0.107
GUCAACAGUUGUCUCAAUCCCAUUCUCUAUGCUUUCUUGGAUGAGAACUUCAAGGCCUGCUUCCGAAAGUUCUGCUGUGCUUCUGCCCUGCACCGGGAGAUGCAGGUUUCUGAUCGUGUG	0.421
AAUAGCCUUCUAUUUUUAAUAGGAACCUAGAGAAUACUUAGGAUUAUCUAGAGUUGUUUCUUCCGAAUCUAGAACUAUUUAUUUGUAUUUAAACAAUGUCUAUGAUUUGUACCAAUUCUU	15
UGAAUAUGAUACUUCUUUAUUCACAGUAUCUGUGUCUCCUGCACCCUUUGGUGUUGCAAUUUCCGGUAUGUGAAAGUAGAUGUUAGCAGGGUUCUCUCCCUAUUUAAAAAUAAAUUUUAA	6.12
GGAUGCCACCAAAGCCUCCCAUUUGCUAUAGUUUUAUUUCAUGCACUGGAAACUGAGCAUUUAUCGCCGAGUACCGCCAAGCUUUCACUCCAGUGCCGUUUGGCAAUGCAAUUUUUUUUA	1.44

Sample 4
Target: CCNA2, cyclin fold, Cln2 fusion (human)
Technique: yeast growth competition, sequencing
Sample: yeast
Notes: strong parent motif
Reference: not given
Reading: higher = stronger binding
Starting sequence: BRCA2 docking peptide (human); PSIKRNLLNEFDR
Variant	normalised enrichment score
L7Y	0.93
S2M	4.58
R13Y	4.24
L8C	3.89
R5A	0.251
S2Q	4.95
R5S	0.734
P1D	4.67
L7C	0.101
N9Q	5.2
R13A	5.78
R13S	5.39
F11Y	3.18
L8K	3.12
R13G	5.02
F11W	0.676
L8S	2.69
F11S	-0.384
E10C	1.81
N6F	1.97
N6R	3.8
L8I	4.66
F11M	2.2
P1A	4.68
S2G	4.83

Sample 5
Target: ABI1, truncated, D143A, DHFR fusion (Arabidopsis thaliana)
Technique: DHFR PCA, deep sequencing
Sample: yeast
Notes: methotrexate growth selection, single substitutions
Together with: (+)-ABA 0 µM
Reference: wild-type fitted maximum
Reading: higher = stronger binding
Starting sequence: PYL1, truncated, DHFR fusion (Arabidopsis thaliana); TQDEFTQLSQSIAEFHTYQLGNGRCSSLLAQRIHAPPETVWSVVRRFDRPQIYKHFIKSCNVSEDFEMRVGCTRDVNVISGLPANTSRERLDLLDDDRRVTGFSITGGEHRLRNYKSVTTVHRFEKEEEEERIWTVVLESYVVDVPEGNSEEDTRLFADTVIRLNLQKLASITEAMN
Variant	relative binding score [%]
V44I	5.76
T154G	-3.59
A84H	60.6
E130P	58.5
D95Q	18.6
E128W	7.61
G107V	0.629
R132D	52.9
G71W	2.22
V40C	-2.52
V62I	15.6
P146Q	22.7
V121Q	1.11
E139F	-13.8

For quick reference, copied from above (sample 5):
Variant	relative binding score [%]
T154G	-3.59
V44I	5.76
E130P	58.5
R132D	52.9
V121Q	1.11
G107V	0.629
V40C	-2.52
G71W	2.22
D95Q	18.6
V62I	15.6
